{"data": "Assay results collected from several papers", "note": "Every numbered part comes from another study and shows a few of its results, in no order."}
{"data": "Series 1", "target": "RNA binding protein fox-1 homolog 2, RRM domain, GST-SBP tag (RBFOX2, Homo sapiens, UniProt O43251-10, residues 100-194)", "method": "RNA Bind-n-Seq", "form": "RNA", "medium": "in vitro", "concentration": "365 nM", "notes": "natural RNA segment, single round, ends assumed", "reference": "no-protein control", "direction": "higher = stronger binding", "constant ends, left off below": "GGGAGUUCUACAGUCCGACGAUC … UGGAAUUCUCGGGUGCCAA", "Residues (chain)": "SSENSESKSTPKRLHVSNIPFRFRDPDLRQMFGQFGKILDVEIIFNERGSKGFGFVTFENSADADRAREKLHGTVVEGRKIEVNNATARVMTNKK"}
{"Oligonucleotide": "UUUAUCUUGUUCUUCAGUUAACAUCUGUGUUCUGUGGGGGAGGGAGGGAGUCAUGUGUGUUUGAAGGGAGAAGUCCAUUGAGUCUCUAAUUGACUUUUCUUUCAGCUCCA", "RBNS enrichment (R)": 0.33}
{"Oligonucleotide": "AGAUAUAACUGAUGGGCUUUGAACCUGGUUGGCCGGGGAAGCUGUAGGGGUGGAUAGAGCUGGCUUUCCUUCUGGGCUGUCUCCAUCUGACCCUACCCCUUCCAUGUCCC", "RBNS enrichment (R)": 0.329}
{"Oligonucleotide": "GCCUGGAGCCUUGCUCUCUGGGCACAGAGGGGUCCACUCUCCUGCCUGCUGGGACCUAUGGAAGGGGCUUCCUGGCCAAGGCCCCCUCUUCCAGAGGAGGAGCAGGGAUC", "RBNS enrichment (R)": 0.321}
{"Oligonucleotide": "UGGGCUGUGGUGGUGUUGAUCAGUUGCUCCAGUGUUUGAAAUAAGAAGACUCAUGUUUAUGUCUGGAAUAAGUUCUGUUUGUGCUGACAGGUGGCCUAGGUCCUGGAGAU", "RBNS enrichment (R)": 2.46}
{"Oligonucleotide": "UGUGUGUAAACAAACGUGCACGUGCUCGCACUUAGCUGCGCAGGCUUUCUGUGCAUGAACUAGAAAAGGAGACAUUAUAUUAAAUUAGCCACCUUUUGGCCCCUAAGCUC", "RBNS enrichment (R)": 0.481}
{"Oligonucleotide": "ACUCAGAGGGGGUUGGGUUUGGGGACAUAAAGCCUCUGACUCAAACUCCUCCCUUUUAUCUUCUAGCCACAGUUCUAAGACCCAAAGUGGGGGGUGGACACAGAAGUCCC", "RBNS enrichment (R)": 0.247}
{"Oligonucleotide": "GAACCUAGUGAAUGGUAUGCUUGGGUGUUUUCCAUUGAGAGUGGAUGGACCUCUUUAUAAAGUUGGUUGCUGCAAAAUCCAGUUCUUCCAAAAGCCACUUUAUUUAGGGU", "RBNS enrichment (R)": 1.32}
{"Oligonucleotide": "AAUCUCUACUCAUCCCUCCUUCCCUAGAGGAGCCUUUGAGGAGCCUCUUUCCUGGGGACAAAAGGCUCUCCUAGACAUGAGUGAGCAGGUAAUCGCCCAACUUGGCUUUG", "RBNS enrichment (R)": 0.429}
{"data": "Series 2", "target": "RING finger protein unkempt homolog, zinc fingers 1-6, SBP tag (UNK, Homo sapiens, UniProt Q9C0B0, residues 30-357)", "method": "RNA Bind-n-Seq", "form": "RNA", "medium": "in vitro", "concentration": "100 nM", "notes": "RNA with constant flanks, vertebrate orthologous sites, ends assumed", "reference": "input RNA pool", "direction": "higher = stronger binding", "constant ends, left off below": "GGGAGUUCUACAGUCCGACGAUC … CAACAGAGGAUUGAGCAUCA", "UniProt Q9C0B0, sequence (30-357, looked up)": "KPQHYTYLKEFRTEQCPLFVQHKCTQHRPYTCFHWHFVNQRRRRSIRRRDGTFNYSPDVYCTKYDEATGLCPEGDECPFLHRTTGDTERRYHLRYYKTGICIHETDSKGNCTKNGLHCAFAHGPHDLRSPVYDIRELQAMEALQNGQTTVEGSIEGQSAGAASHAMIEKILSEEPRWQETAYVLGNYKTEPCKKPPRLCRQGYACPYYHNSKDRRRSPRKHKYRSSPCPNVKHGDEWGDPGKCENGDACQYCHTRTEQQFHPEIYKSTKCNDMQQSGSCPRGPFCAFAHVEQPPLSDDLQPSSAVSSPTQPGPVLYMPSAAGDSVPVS"}
{"Oligonucleotide": "CUACCGUAAACAACUCAGGGCAGUAUUCUCCGUAUCCUUACAGAAACCUAAAUCAGGGAUUAGUUAACAGUACAGGGAUGAAUCAAAAUUUAGGCCUUACAAACAGUACUCCAAUGAACC", "bound/input enrichment": "0.83 ratio"}
{"Oligonucleotide": "GUGACUUUGGACGUCCGCUCCCCCUCAGUGUGGAGGCUGUUUAGUCUCGGGCCUUGCAGGUUUAUUUUACUCUCCUUGACUCGAGGCUUCUGUUUCACCAUGUUCCGCCAUAUCGUCGGU", "bound/input enrichment": "0.49 ratio"}
{"Oligonucleotide": "GUUGUGACCCAUUUAACAUACACAAAAAAUUAGCCAAAAAAAAUUUGCAUGUAAUUGACUUAGAUGAUGCCACUUUUCUGAGUGCUAAAUUUGGAAGACAGCUUGUACCUGGUUGGAAGC", "bound/input enrichment": "1.47 ratio"}
{"Oligonucleotide": "UUUUAAAGUCACUUUUCCCAUUUCUUGUAAAUAGUGGAUAAUCAUUUUUAUUUUAUUUUUAAGUGCUGUUUUAACAUAUGGAUAGAUCAUAAAUGUACUUGCUGAAUUUAUUCAUGUUUU", "bound/input enrichment": "0.381 ratio"}
{"Oligonucleotide": "UUCACCACUCUUGGGUGCGUGAUUGAGGGUGAAGCAUCCACCAGCACUUCAAGGGGUCCAUAGUAUUUUUUCUUGCUGCCUCAAAGUUCCCAAAGCCUUCGAGCAGAAGUAGCAGUAGAU", "bound/input enrichment": "0.995 ratio"}
{"Oligonucleotide": "UCAUGGCCGCUUCUUACCUACCUCAAUGAGGUAAAGUCUCCCUUGGCAUUAGGUUGGUACUAGAGCCAGCCAUACCUAAGCAGUCUUUUCACAUUUCAUUUCUUUCACACUCGUCAUCUU", "bound/input enrichment": "0.756 ratio"}
{"Oligonucleotide": "AUUCAUCUCUUACUUAGUGUCCAAAAUUACUGAGGGUUUGAAACAUUCAGUAGUUUCACAUAGAGCUACAUUGGCAGGUGCUUUAAUACUAUCAUAGUGAGAUCAGAUACCAUUGUAGUA", "bound/input enrichment": "0.645 ratio"}
{"Oligonucleotide": "GUCUAAGAGUUGGAUACUUUUUGUUCCUUUUGGUCUCUGUUAACCUAUCUAUUGCUCUAUUAGUCCCUUUCUUGCACACGUAUUAUACUUUAAAAUUGUGUUUAUGUAAACUGGACUGAU", "bound/input enrichment": "0.587 ratio"}
{"data": "Series 3", "target": "Histone acetyltransferase KAT6A, both winged helices, GST fusion (KAT6A, Homo sapiens, UniProt Q92794, residues 1-181)", "method": "protein binding microarray", "form": "double-stranded DNA, one strand shown", "medium": "in vitro", "concentration": "not given", "notes": "8-mer, flanks averaged, mean of 2 arrays, mostly near background", "reference": "not given", "direction": "higher = stronger binding", "Construct (chain)": "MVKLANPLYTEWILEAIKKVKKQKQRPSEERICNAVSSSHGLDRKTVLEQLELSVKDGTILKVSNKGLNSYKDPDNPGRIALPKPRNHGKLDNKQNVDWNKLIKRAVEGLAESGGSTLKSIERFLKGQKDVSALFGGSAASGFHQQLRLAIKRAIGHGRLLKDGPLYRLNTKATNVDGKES"}
{"Oligonucleotide": "CAAAATGA", "E-score": 0.0372}
{"Oligonucleotide": "CCGAAATA", "E-score": 0.0395}
{"Oligonucleotide": "ACCTAGAC", "E-score": 0.0207}
{"Oligonucleotide": "AGTGACTC", "E-score": -0.226}
{"Oligonucleotide": "GAAGGCAC", "E-score": -0.0434}
{"Oligonucleotide": "AGATCGAT", "E-score": 0.0361}
{"Oligonucleotide": "GCCTCACA", "E-score": -0.139}
{"Oligonucleotide": "CAATCCGA", "E-score": 0.00775}
{"Oligonucleotide": "AACGACCT", "E-score": -0.0906}
{"Oligonucleotide": "ACTCAACT", "E-score": -0.0941}
{"Oligonucleotide": "ACTGATAC", "E-score": -0.0121}
{"Oligonucleotide": "CATTCCAC", "E-score": 0.0105}
{"Oligonucleotide": "AACACATA", "E-score": -0.204}
{"Oligonucleotide": "ATACAAAC", "E-score": -0.0512}
{"Oligonucleotide": "AGACTGAA", "E-score": 0.0168}
{"Oligonucleotide": "TGAGGGCA", "E-score": -0.157}
{"Oligonucleotide": "CCGGTCAG", "E-score": 0.148}
{"data": "Series 4", "target": "Interferon regulatory factor 5, full length, phosphomimetic (IRF5, Homo sapiens, UniProt Q13568-2, residues 1-514, K96S/S451D/S453D/S456D/S462D)", "method": "protein-binding microarray", "form": "double-stranded DNA, one strand shown", "medium": "in vitro", "concentration": "250 nM", "notes": "60-bp whole probe", "together with": "salmon DNA 0.4 mg/ml", "reference": "random background probes", "direction": "higher = stronger binding", "constant ends, left off below": "GCCTAGCAC … GTCTTGATTCGCTTGACGCTGCTG"}
{"Oligonucleotide": "TTTGGACTGGGGACTGGGTTAGTGCTA", "log fluorescence [z-score]": -0.245}
{"Oligonucleotide": "GACGATTTCAATCTCGAGACGTGCTAG", "log fluorescence [z-score]": 0.693}
{"Oligonucleotide": "TCAAGTGTGCCATATTTAACTGTGCTA", "log fluorescence [z-score]": 0.464}
{"Oligonucleotide": "TTAGGTTTCGGGACAGGGTTAGTGCTA", "log fluorescence [z-score]": 6.79}
{"Oligonucleotide": "CACGGTATCGGTCTCGGGACGTGCTAG", "log fluorescence [z-score]": 4.67}
{"Oligonucleotide": "GACGGTCTCGGTTTCGGGATGTGCTAG", "log fluorescence [z-score]": 3.96}
{"Oligonucleotide": "TCACTTTCCATTTCTGTTACTGTGCTA", "log fluorescence [z-score]": 4.8}
{"Oligonucleotide": "TCATCTCTAACCTCTCTAACTGTGCTA", "log fluorescence [z-score]": 0.533}
{"Oligonucleotide": "GACGATCTCAGTTTCGATACGTGCTAG", "log fluorescence [z-score]": 8.88}
{"Oligonucleotide": "GACGGGTTCGGTCTCGGGACGTGCTAG", "log fluorescence [z-score]": -0.0455}
{"Oligonucleotide": "TTAGGCCTGGGGTATCGGTTAGTGCTA", "log fluorescence [z-score]": 1.92}
{"Oligonucleotide": "TCAGATTTCGGGTATCGATTAGTGCTA", "log fluorescence [z-score]": 7.17}
{"Oligonucleotide": "GACGAACTGAGGCTGGAGACGTGCTAG", "log fluorescence [z-score]": -0.72}
{"Oligonucleotide": "GTTTTACTTTCTATCTCTGTGTGCTAG", "log fluorescence [z-score]": 6.17}
{"Oligonucleotide": "TTAGGCTTCGGACTGGGTTAGTGCTAG", "log fluorescence [z-score]": -0.268}
{"Oligonucleotide": "TTAGGACTGGACTTTCCGTTAGTGCTA", "log fluorescence [z-score]": 0.384}
{"Oligonucleotide": "GACGGTATCCTTTTCCTGATGTGCTAG", "log fluorescence [z-score]": 0.312}
{"Oligonucleotide": "TTAGATATCACTCTCGATTAGTGCTAG", "log fluorescence [z-score]": 2.5}
{"Oligonucleotide": "TTCGGTATCCTTTTCCTTTAGTGCTAG", "log fluorescence [z-score]": 1.71}
